Experimental data from different studies.
Numbered parts are unrelated; each lists some results of a single study.
Sequence of UniProt Q9UQ88 (whole entry, looked up): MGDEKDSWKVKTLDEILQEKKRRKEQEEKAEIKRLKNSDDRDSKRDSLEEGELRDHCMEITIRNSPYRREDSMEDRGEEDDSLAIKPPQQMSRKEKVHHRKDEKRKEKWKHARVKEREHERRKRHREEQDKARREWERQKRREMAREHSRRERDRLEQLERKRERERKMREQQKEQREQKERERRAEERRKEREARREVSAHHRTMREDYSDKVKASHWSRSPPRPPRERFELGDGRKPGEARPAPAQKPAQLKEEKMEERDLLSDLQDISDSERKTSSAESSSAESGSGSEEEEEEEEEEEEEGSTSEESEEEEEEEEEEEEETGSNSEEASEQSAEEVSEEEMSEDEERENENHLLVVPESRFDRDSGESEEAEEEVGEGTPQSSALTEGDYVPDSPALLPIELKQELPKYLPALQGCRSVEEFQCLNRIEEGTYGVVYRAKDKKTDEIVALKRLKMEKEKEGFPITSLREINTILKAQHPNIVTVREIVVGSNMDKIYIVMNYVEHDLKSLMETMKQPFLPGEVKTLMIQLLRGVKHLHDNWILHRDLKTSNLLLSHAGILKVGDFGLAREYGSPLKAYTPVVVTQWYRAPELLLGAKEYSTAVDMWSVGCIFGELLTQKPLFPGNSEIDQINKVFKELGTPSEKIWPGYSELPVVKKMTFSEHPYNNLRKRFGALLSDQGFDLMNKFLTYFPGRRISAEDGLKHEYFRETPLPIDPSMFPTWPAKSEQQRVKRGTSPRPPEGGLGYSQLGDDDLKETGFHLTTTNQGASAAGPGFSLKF
Sequence of UniProt O75676 (whole entry, looked up): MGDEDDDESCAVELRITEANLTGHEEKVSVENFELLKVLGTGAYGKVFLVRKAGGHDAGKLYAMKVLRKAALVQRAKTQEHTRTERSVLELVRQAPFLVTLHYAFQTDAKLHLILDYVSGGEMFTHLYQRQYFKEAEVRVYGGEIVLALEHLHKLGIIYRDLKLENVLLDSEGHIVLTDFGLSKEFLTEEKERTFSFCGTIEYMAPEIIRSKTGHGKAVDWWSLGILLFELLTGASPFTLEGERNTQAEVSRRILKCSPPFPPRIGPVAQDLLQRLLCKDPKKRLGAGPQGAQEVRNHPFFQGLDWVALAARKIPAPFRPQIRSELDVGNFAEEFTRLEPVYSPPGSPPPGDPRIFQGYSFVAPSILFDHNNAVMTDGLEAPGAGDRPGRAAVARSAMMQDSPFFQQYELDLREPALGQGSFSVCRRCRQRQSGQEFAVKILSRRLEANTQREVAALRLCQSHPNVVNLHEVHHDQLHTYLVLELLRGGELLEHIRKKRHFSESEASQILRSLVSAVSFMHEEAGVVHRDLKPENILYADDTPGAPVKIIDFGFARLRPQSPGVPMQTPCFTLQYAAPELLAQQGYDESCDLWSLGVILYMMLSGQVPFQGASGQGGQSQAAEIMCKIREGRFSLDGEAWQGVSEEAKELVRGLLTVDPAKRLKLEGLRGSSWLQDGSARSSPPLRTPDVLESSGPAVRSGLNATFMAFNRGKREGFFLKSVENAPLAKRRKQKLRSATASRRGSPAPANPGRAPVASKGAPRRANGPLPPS
Sequence of UniProt Q13470 (whole entry, looked up): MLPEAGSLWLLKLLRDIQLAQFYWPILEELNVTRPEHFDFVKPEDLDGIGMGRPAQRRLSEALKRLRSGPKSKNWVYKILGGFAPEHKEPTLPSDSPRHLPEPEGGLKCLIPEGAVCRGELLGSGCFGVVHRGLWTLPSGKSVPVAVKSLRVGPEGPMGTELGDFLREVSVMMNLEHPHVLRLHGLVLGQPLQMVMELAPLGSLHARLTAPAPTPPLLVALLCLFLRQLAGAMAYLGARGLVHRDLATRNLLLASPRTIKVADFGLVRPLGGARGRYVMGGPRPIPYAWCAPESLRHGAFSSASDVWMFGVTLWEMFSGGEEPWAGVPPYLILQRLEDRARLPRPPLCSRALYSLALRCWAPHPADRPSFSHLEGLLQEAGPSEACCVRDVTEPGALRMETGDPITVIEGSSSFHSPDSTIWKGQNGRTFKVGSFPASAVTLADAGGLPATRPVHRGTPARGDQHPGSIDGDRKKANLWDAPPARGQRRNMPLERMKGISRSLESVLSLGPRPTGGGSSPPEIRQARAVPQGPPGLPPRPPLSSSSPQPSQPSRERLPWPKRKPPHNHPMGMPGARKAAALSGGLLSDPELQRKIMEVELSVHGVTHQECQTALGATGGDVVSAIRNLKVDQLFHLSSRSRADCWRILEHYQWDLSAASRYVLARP
Sequence of UniProt P06241 (whole entry, looked up): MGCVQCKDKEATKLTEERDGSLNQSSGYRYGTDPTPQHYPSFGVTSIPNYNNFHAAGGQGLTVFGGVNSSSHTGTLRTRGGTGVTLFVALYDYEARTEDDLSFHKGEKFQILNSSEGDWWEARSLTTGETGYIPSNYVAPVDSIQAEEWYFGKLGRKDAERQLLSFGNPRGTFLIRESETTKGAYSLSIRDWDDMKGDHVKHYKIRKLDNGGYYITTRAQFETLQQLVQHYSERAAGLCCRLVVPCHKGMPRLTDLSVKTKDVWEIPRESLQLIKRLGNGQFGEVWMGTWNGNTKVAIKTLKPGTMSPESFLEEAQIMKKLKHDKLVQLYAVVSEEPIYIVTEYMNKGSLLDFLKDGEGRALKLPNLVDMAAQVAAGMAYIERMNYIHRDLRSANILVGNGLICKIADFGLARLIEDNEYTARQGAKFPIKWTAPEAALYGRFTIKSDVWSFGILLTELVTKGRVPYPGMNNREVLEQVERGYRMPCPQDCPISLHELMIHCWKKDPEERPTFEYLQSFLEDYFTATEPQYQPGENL
Sequence of UniProt P00519 (whole entry, looked up): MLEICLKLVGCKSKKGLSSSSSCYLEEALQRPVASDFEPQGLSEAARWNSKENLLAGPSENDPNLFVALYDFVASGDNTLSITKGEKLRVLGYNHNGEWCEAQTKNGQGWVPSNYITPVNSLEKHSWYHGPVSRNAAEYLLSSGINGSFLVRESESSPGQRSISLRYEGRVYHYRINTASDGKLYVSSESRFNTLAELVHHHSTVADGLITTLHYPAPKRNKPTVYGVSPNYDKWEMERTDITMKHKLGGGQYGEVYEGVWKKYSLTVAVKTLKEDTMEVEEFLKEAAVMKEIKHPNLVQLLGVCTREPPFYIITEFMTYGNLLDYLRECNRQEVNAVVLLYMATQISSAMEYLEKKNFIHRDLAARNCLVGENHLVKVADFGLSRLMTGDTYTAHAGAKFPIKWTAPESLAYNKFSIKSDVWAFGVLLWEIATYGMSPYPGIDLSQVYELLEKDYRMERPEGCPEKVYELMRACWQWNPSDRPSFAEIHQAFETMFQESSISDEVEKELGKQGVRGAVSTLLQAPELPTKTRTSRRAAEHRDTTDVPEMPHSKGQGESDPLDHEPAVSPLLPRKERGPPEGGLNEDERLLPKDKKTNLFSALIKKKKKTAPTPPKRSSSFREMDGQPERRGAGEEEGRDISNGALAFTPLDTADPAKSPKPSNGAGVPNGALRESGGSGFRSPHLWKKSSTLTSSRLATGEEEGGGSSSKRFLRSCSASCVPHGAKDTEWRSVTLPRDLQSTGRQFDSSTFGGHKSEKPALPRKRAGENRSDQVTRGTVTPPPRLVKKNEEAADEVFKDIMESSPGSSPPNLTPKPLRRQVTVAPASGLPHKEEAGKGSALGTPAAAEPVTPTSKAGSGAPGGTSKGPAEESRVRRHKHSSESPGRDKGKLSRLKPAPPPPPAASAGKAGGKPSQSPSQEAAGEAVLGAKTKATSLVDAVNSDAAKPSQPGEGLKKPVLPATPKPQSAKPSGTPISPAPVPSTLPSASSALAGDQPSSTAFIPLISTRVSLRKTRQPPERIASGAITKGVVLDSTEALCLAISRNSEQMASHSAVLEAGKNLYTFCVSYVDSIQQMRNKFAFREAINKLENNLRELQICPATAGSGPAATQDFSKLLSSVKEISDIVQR

Series 1
Target: Calcium/calmodulin-dependent protein kinase type II subunit alpha (CAMK2A, Homo sapiens, UniProt Q9UQM7)
Sequence of UniProt Q9UQM7 (whole entry, looked up): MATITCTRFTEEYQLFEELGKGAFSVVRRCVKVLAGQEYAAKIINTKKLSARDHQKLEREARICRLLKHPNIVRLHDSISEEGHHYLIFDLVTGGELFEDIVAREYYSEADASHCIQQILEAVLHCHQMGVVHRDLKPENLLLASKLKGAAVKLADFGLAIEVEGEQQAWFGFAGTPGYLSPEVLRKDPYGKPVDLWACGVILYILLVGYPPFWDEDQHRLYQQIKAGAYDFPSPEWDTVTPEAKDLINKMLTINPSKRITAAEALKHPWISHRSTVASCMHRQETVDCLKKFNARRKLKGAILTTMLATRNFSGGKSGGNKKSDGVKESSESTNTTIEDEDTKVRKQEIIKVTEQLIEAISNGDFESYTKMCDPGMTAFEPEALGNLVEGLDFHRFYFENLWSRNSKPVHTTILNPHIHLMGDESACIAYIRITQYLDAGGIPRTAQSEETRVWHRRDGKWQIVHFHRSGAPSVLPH
Read-out: enzyme activity
Mode: inhibitor
Concentration: 10 µM
The inhibition of `CCCCCCCCCCCCCCCCCCC(=O)O` is reported as -12%.
With `CCC[C@@H]1C[C@@H](C(=O)N[C@@H]([C@H]2O[C@H](SC)[C@H](OP(=O)(O)O)[C@@H](O)[C@H]2O)[C@H](C)Cl)N(C)C1` the inhibition was -15%.
The inhibition of `CC(C(=O)O)c1ccc2c(c1)Cc1cccnc1O2` (centres unmarked) is reported as -13%.
`C=Cc1ccc(O)c(OC)c1` has an inhibition of -4%.
For `C[C@H](CCC(=O)O)[C@H]1CC[C@H]2[C@@H]3[C@H](O)C[C@@H]4C[C@H](O)CC[C@]4(C)[C@H]3CC[C@]12C`, the inhibition was 0%.
The inhibition of `CCOC(=O)[N-]c1c[n+](N2CCOCC2)no1` is reported as -6%.
For `O=C(OC[C@H]1O[C@@H](Oc2c(-c3ccc(O)c(O)c3)oc3cc(O)cc(O)c3c2=O)[C@H](O)[C@@H](O)[C@H]1O)c1cc(O)c(O)c(O)c1`, the inhibition was -51%.
`C=C(C)[C@@H]1CC[C@]2(C=O)CC[C@]3(C)[C@H](CC[C@@H]4[C@@]5(C)CC[C@H](O)C(C)(C)[C@@H]5CC[C@]43C)[C@@H]12` gave an inhibition of -2%.
For `CC(C)=CCC[C@]1(C)CC[C@]2(C)[C@H]3CC[C@@]4(C)[C@@H](CCC(=O)[C@@H]4C)[C@]3(C)CC[C@@]2(C)C1`, the inhibition was 23%.
`CC(=O)OCC(=O)[C@@]1(O)[C@H](C)C[C@H]2[C@@H]3CCC4=CC(=O)C=C[C@]4(C)[C@@]3(F)[C@@H](O)C[C@@]21C` has an inhibition of -2%.
`COc1cc(/C=C/CO)cc(OC)c1O[C@@H]1O[C@H](CO)[C@@H](O)[C@H](O)[C@H]1O` gave an inhibition of -26%.
`O=C1c2ccccc2C(=O)c2c(O)c(O)cc(O)c21` gave an inhibition of -15%.
With `CC1=C(C(=O)O)N2C(=O)[C@@H](NC(=O)[C@H](N)c3ccc(O)cc3)[C@H]2SC1` the inhibition was -10%.

Series 2
SMILES: CCCOc1ccc([C@@H]2[C@@H](C(=O)O)[C@H](c3ccc4c(c3)OCO4)CN2CC(=O)Nc2c(CC)cccc2CC)cc1
Concentration: 1 µM
The remaining binding was 80% (Tyrosine-protein kinase ABL1, phosphorylated (ABL1, Homo sapiens, UniProt P00519); cell-free assay, competition with immobilised ligand).
It gave 100% for remaining binding (PIK3CA (Homo sapiens, UniProt P42336, C420R); cell-free assay, competition with immobilised ligand).
CIT (Homo sapiens, UniProt O14578); cell-free assay, competition with immobilised ligand — remaining binding: 98%.
It gave 86% for remaining binding (DYRK1A (Homo sapiens, UniProt Q13627); cell-free assay, competition with immobilised ligand).
It gave 93% for remaining binding (TNK1 (Homo sapiens, UniProt Q13470); cell-free assay, competition with immobilised ligand).
Receptor-type tyrosine-protein kinase FLT3, autoinhibited (FLT3, Homo sapiens, UniProt P36888); cell-free assay, competition with immobilised ligand — remaining binding: 71%.
For CDK11A (Homo sapiens, UniProt Q9UQ88); binding, competition with immobilised ligand: remaining binding read 100%.
The remaining binding was 96% (EPHB4 (Homo sapiens, UniProt P54760); cell-free assay, competition with immobilised ligand).
For Ribosomal protein S6 kinase alpha-4, N-terminal kinase domain (RPS6KA4, Homo sapiens, UniProt O75676); cell-free assay, competition with immobilised ligand: remaining binding read 97%.
For MAP3K14 (Homo sapiens, UniProt Q99558); cell-free assay, competition with immobilised ligand: remaining binding read 82%.
It gave 93% for remaining binding (AXL (Homo sapiens, UniProt P30530); cell-free assay, competition with immobilised ligand).
AAK1 (Homo sapiens, UniProt Q2M2I8); binding — remaining binding: 90%.
The remaining binding was 100% (STK3 (Homo sapiens, UniProt Q13188); cell-free assay, competition with immobilised ligand).
For EPHB6 (Homo sapiens, UniProt O15197); cell-free assay, competition with immobilised ligand: remaining binding read 77%.
EPHA2 (Homo sapiens, UniProt P29317); cell-free assay, competition with immobilised ligand — remaining binding: 100%.
The remaining binding was 100% (PNCK (Homo sapiens, UniProt Q6P2M8); cell-free assay, competition with immobilised ligand).
Cyclin-dependent kinase 4, with cyclin D1 (CDK4, Homo sapiens, UniProt P11802); cell-free assay, competition with immobilised ligand — remaining binding: 100%.
For NTRK1 (Homo sapiens, UniProt P04629); cell-free assay, competition with immobilised ligand: remaining binding read 97%.
MAPK9 (Homo sapiens, UniProt P45984); cell-free assay, competition with immobilised ligand — remaining binding: 80%.
For TNNI3K (Homo sapiens, UniProt Q59H18); cell-free assay, competition with immobilised ligand: remaining binding read 84%.
FYN (Homo sapiens, UniProt P06241); cell-free assay, competition with immobilised ligand — remaining binding: 87%.
It gave 87% for remaining binding (CDK9 (Homo sapiens, UniProt P50750); cell-free assay, competition with immobilised ligand).

Series 3
Structure (SMILES): C=CC(=O)N1CCC([C@@H]2CCNc3c(C(N)=O)c(-c4ccc(Oc5ccccc5)cc4)nn32)CC1
Concentration: 1 µM
The inhibition was 6% (CDK14 (Homo sapiens, UniProt O94921); enzyme activity, inhibitor).
Ribosomal protein S6 kinase alpha-6, N-terminal kinase domain (RPS6KA6, Homo sapiens, UniProt Q9UK32); inhibitor — inhibition: 24%.
It gave 0% for inhibition (SIK2 (Homo sapiens, UniProt Q9H0K1); enzyme activity, inhibitor).
For EPHA5 (Homo sapiens, UniProt P54756); cell-free assay: inhibition read 5%.
It gave 2% for inhibition (Tyrosine-protein kinase JAK1, JH1 kinase domain (JAK1, Homo sapiens, UniProt P23458); inhibitor).
The inhibition was 52% (CDK11A (Homo sapiens, UniProt Q9UQ88); enzyme activity, inhibitor).
It gave 84% for inhibition (FRK (Homo sapiens, UniProt P42685); enzyme activity, inhibitor).
For JAK3 (Homo sapiens, UniProt P52333); inhibitor: inhibition read 58%.
It gave 5% for inhibition (RIPK1 (Homo sapiens, UniProt Q13546); enzyme activity, inhibitor).
It gave 13% for inhibition (TLK1 (Homo sapiens, UniProt Q9UKI8); enzyme activity, inhibitor).

Series 4
Target: Serine/threonine-protein kinase 24 (STK24, Homo sapiens, UniProt Q9Y6E0)
Sequence of UniProt Q9Y6E0 (whole entry, looked up): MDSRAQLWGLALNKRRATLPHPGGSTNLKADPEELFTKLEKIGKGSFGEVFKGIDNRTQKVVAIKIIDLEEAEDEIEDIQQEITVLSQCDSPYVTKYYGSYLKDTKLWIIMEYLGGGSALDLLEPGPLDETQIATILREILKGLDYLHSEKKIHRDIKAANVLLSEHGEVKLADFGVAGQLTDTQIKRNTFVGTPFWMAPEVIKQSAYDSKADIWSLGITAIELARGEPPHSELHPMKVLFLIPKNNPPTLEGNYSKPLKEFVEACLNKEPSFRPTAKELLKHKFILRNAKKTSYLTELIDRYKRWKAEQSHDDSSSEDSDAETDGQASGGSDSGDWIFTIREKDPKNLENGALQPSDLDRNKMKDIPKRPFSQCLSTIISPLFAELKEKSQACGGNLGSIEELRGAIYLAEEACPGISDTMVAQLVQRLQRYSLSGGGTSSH
Read-out: enzyme activity
Mode: inhibitor
Concentration: 0.5 µM
Baseline: control
`O=C1NC(=O)/C(=C/c2ccc3c(c2)OC(F)(F)O3)S1` has a remaining activity of 91.9%.
With `COc1cc2c(N3CCN(C(=O)Nc4ccc(OC(C)C)cc4)CC3)ncnc2cc1OCCCN1CCCCC1` the remaining activity was 102%.
The remaining activity of `N#C/C(=C(/N)SC1C=CC=CC1)c1cccc(C(O)c2ccncc2)c1` (centres unmarked) is reported as 94.8%.
With `Nc1nc(Nc2ccc(S(N)(=O)=O)cc2)nn1C(=S)Nc1c(F)cccc1F` the remaining activity was 2.88%.
`CCN(CC)CCCCN1c2ccccc2Oc2ccc(Cl)cc21` gave a remaining activity of 90%.
For `COc1cc2c(Nc3ccc(Br)cc3F)ncnc2cc1OCC1CCN(C)CC1`, the remaining activity was 104%.
The remaining activity of `Clc1ccc(Nc2nnc(Cc3ccncc3)c3ccccc23)cc1` is reported as 98.7%.
With `CC(C)(C)c1nc2c3cc[nH]c(=O)c3c3cc(F)ccc3c2[nH]1` the remaining activity was 82.4%.
The remaining activity of `CC(C)n1cnc2c(Nc3cccc(Cl)c3)nc(NCCO)nc21` is reported as 87.7%.
With `O=C1c2ccccc2-c2nc3nnnn3nc21` the remaining activity was 101%.
The remaining activity of `CNc1cc2c(Nc3cccc(Br)c3)ncnc2cn1` is reported as 102%.
For `O=C(O)/C=C/c1cc(Br)c(Br)c(Br)c1Br`, the remaining activity was 86.1%.
`CC(C)N(CCC(=O)c1ccc2ccccc2c1)Cc1ccccc1` has a remaining activity of 96.6%.
With `N#CC(c1ccnc(NCCc2cccnc2)n1)c1nc2ccccc2s1` (centres unmarked) the remaining activity was 95.6%.
For `O=C(c1ccccc1)c1ccc(N2CCOCC2)cc1O`, the remaining activity was 89%.
`C[C@@H](N)[C@H]1CC[C@H](C(=O)Nc2ccncc2)CC1` gave a remaining activity of 101%.
For `FC(F)(F)c1ccc(/C=C/c2nc(COc3ccc(CCCCn4ccnn4)cc3)co2)cc1`, the remaining activity was 101%.
`O=Nc1c(-c2c(O)[nH]c3ccccc23)[nH]c2ccccc12` gave a remaining activity of 62.6%.
`O=c1c(-c2ccc(F)cc2)c(-c2ccncc2)[nH]n1-c1ccc(Cl)cc1` has a remaining activity of 111%.
The remaining activity of `CCCCc1c(-c2ccc(O)cc2)[nH]c2nccnc12` is reported as 83.6%.
The remaining activity of `NC(=O)c1cccc(-c2cc(Nc3ccc(OC(F)(F)F)cc3)ncn2)c1` is reported as 89.5%.
With `NC(=O)c1ccc(-c2nc(-c3ccc4c(c3)OCCO4)c(-c3ccccn3)[nH]2)cc1` the remaining activity was 90.4%.
For `c1cc(-c2cnn3cc(-c4ccc(OCCN5CCCCC5)cc4)cnc23)ccn1`, the remaining activity was 95.5%.
